Experimental data collected from several papers.
Parts stem from different laboratories: compare values within a part only.

Study 1
Target: Interferon regulatory factor 7, full length, phosphomimetic (IRF7, Homo sapiens, UniProt Q92985, residues 1-503, S101K/S471D/S472D/S475D/S476D/S477D/S483D/S484D/S487D)
Technique: protein-binding microarray
Form: double-stranded DNA, one strand shown
Sample: in vitro
Concentration: 250 nM
Notes: 60-bp whole probe
Together with: salmon DNA 0.4 mg/ml
Relative to: random background probes
Reading: higher = stronger binding
All sequences stand within: GCCTAGCAC … GTCTTGATTCGCTTGACGCTGCTG
Construct (chain): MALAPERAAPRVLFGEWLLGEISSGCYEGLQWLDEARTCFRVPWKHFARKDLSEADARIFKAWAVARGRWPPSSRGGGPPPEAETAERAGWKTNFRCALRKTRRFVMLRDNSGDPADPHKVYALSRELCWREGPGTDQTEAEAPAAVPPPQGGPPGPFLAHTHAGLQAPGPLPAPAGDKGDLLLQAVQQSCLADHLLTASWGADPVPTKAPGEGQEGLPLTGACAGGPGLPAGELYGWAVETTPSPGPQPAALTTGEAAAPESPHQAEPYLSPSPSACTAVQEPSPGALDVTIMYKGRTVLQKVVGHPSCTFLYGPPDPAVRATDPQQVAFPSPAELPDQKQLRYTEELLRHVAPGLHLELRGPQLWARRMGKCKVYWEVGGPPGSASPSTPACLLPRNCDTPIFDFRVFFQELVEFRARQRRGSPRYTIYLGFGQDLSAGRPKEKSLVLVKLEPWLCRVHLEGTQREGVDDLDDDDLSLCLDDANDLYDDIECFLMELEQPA
Sequence	log fluorescence [z-score]
TAAGGTTTCGGACTGGGTTAGTGCTAG	4.27
TGCACTCTTTACATGGGTTTGTGCTAG	0.373
TCATTATTTTTTTTATTACTGTGCTAG	1.07
TCAACATTCACCATGGCACTGTGCTAG	0.24
GACGGTATCCTTATCCTGGCGTGCTAG	0.204
TTTGGTTCCCTTTTCCTTTAGTGCTAG	4.32
GACGGACTGGGGACTGGGGCCGTGCTA	-0.831
TCATCTAACCTCTCTAATACTGTGCTA	0.333
TTAGGTTGCCTACTGCTTTAGTGCTAG	-0.41
GCTTCTCCTTGGAATAGATCGTGCTAG	2.3
TTAGGACTGGGATATCGGTTAGTGCTA	0.057
TTAGATTTCGTGTATCGATTAGTGCTA	0.953

Study 2
Target: Sal-like protein 4, full length isoform A (SALL4, Homo sapiens, UniProt Q9UJQ4, residues 1-1053)
UniProt Q9UJQ4, sequence (whole entry, looked up): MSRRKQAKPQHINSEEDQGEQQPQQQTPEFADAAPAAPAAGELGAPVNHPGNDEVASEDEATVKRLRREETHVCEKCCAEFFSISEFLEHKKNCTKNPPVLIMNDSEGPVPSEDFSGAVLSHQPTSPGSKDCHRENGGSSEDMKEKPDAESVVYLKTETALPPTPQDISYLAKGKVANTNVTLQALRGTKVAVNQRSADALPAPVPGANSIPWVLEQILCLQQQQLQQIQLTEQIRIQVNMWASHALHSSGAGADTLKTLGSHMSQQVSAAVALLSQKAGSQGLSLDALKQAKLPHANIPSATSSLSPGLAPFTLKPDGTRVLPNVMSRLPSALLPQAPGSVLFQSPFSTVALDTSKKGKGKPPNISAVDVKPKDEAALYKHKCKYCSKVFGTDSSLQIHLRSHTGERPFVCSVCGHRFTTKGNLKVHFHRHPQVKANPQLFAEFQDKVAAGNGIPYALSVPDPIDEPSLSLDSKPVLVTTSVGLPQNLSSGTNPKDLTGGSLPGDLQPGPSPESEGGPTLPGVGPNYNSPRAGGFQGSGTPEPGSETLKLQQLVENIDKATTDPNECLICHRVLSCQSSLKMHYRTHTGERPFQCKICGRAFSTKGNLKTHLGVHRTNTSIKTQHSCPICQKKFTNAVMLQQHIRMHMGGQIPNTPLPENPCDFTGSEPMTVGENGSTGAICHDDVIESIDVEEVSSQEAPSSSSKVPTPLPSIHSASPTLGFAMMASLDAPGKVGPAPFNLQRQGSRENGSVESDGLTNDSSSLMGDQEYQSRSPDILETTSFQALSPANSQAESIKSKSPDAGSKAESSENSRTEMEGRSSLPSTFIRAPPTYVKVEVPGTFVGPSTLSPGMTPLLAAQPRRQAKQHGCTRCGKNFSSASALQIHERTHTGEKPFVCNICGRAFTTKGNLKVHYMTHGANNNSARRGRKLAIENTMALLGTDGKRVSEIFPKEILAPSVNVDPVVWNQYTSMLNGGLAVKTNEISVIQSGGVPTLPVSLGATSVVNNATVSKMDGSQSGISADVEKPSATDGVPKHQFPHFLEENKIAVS
Technique: universal PBM
Form: double-stranded DNA, one strand shown
Sample: in vitro
Concentration: 600 nM
Notes: 8-mer, flanks averaged, mean of replicates
Reading: higher = stronger binding
Sequence	E-score
CTACTAAG	-0.0125
TGCGAACA	0.0595
AGTTTCAC	0.143
GGTAAACC	-0.116
CTACTGTA	0.103
TGTTGTAA	0.267
CACCACAA	-0.0379
GGTCGCAA	-0.0701
CGTATCAA	0.141
GCCCATCA	-0.186
ACCGGAAC	-0.222
GCGAACGC	-0.127
AATTTACT	0.309
GATATTGC	0.237

Study 3
Target: Histone acetyltransferase KAT6A, both winged helices, GST fusion (KAT6A, Homo sapiens, UniProt Q92794, residues 1-181)
Technique: protein binding microarray
Form: double-stranded DNA, one strand shown
Sample: in vitro
Concentration: not given
Notes: 8-mer, flanks averaged, mean of 2 arrays, mostly near background
Relative to: not given
Reading: higher = stronger binding
Construct (chain): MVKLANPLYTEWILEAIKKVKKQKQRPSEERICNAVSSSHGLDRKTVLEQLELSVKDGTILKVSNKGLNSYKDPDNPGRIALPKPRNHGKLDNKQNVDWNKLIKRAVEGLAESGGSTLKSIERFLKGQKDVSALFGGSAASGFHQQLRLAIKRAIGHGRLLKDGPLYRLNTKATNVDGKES
Sequence	E-score
CGTAGACA	-0.0172
ACCCAAAA	-0.139
CCCGCATC	0.0775
CTACTCTC	-0.202
ACACTTGC	-0.079
ACAATGCT	-0.155
ACATCCTC	-0.0594
GAAGACGA	-0.0353
CTGCATTC	-0.0519
GTGAAGGA	-0.0153

Other studies, line by line
Molecule	target	test	test system	setting	how to read	quantity	result
PhoQ, residues 284 288 289 292 302 303 SVTLVV	PhoP, residues 12 14 15 18 19 HEGLL (Escherichia coli, UniProt P23836)	Sort-seq, measured: YFP reporter	E. coli	PhoQ-PhoP variant library, together with: 10 µM Mg2+	relative to: high Mg2+ state, higher = stronger signaling	fold induction	4.52

A few entries again (study 2):
Sequence	E-score
CACCACAA	-0.0379
GGTCGCAA	-0.0701
CGTATCAA	0.141
GCCCATCA	-0.186
ACCGGAAC	-0.222
